Experimental data of several laboratories.
Every numbered part comes from another study and shows a few of its results, in no order. Substitutions count along the parent as printed.

Set 1
Target: Histone acetyltransferase KAT6A, both winged helices, GST fusion (KAT6A, Homo sapiens, UniProt Q92794, residues 1-181)
Technique: protein binding microarray
Molecule type: double-stranded DNA, one strand shown
Sample: in vitro
Tested at: not given
Notes: 8-mer, flanks averaged, mean of 2 arrays, mostly near background
Baseline: not given
Reading: higher = stronger binding
Residues (chain): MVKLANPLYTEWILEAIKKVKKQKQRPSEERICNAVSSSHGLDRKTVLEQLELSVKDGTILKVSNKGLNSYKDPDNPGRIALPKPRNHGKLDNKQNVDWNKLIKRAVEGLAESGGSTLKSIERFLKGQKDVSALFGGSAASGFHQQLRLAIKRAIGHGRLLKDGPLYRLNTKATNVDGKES
Strand	E-score
GCAATGTA	-0.023
GAGGATTA	-0.182
AATGTTTA	-0.0551
ACGCGTTG	0.278
ACCGCGAC	0.261
CTCACAGA	-0.0335
GACCGTAC	0.182
CGCAACTA	0.0581
TCATCCAA	-0.25
CCCGAACC	-0.0416
GGCAATGA	-0.0824
CGAACGTA	-0.00723
GCTAGGGA	-0.0579
CCGGGACA	0.186
ACTTTCCA	-0.289
AAGGTTCA	-0.0873
GATGGCTA	-0.0531
TCGAAAGA	-0.134
GACTCTAA	-0.188
AGCTAGAG	-0.088
CAAGGCCG	0.0987

Set 2
Target: CCNB3, cyclin fold, Cln2 fusion (human)
Technique: yeast growth competition, sequencing
Sample: yeast
Notes: weak parent motif
Baseline: not given
Reading: higher = stronger binding
Starting sequence: ORC1 docking peptide (human); PRARKRLELGNLG; partner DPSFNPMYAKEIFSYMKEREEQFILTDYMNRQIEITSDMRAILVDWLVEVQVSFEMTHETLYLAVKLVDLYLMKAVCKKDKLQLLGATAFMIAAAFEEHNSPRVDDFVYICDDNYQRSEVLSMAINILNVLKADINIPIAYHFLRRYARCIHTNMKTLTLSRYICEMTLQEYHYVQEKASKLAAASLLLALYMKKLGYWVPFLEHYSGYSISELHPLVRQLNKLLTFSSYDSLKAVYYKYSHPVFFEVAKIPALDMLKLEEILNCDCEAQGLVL
Variant	normalised enrichment score
PRARRRLEFGNLG [K5R L9F]	2.96
PRARKRLELGNLR [G13R]	0.329
PRARKRLELNNLG [G10N]	0.295
PRARKRHELGNLG [L7H]	-0.324
PRARKRLETGNLG [L9T]	-0.345
PRARKRLELGNDG [L12D]	-0.134
PRIRKRLELGNLG [A3I]	-0.228
PKARKRLELGNLG [R2K]	-0.0413
PRARKRLELGNKG [L12K]	0.0367
PRARKRLELGFLG [N11F]	0.413
PRSRKRLELGNLG [A3S]	0.406
PRARKNLELGNLG [R6N]	0.407
PPARKRLELGNLG [R2P]	0.111
PRARKYLELGNLG [R6Y]	-0.0599
PRARKRLELPNLG [G10P]	-0.0131
PRARKTLELGNLG [R6T]	0.325
PRARKRLELGNLM [G13M]	0.52
PRARKRLELGNLN [G13N]	0.135
PRARKRLELGNLH [G13H]	0.311
PRARPRLELGNLG [K5P]	0.423
PRARKRLELGTLG [N11T]	0.321
PRYRKRLELGNLG [A3Y]	0.652
PRERKRLELGNLG [A3E]	0.201
PRARKRLELGHLG [N11H]	0.195
YRARKRLELGNLG [P1Y]	0.189

Set 3
Target: RING finger protein unkempt homolog, zinc fingers 1-6, GST-SBP tag (UNK, Homo sapiens, UniProt Q9C0B0, residues 30-357)
Technique: RNA Bind-n-Seq
Molecule type: RNA
Sample: in vitro
Tested at: not given
Notes: RNA with constant flanks, human and mouse sites, ends assumed
Baseline: input RNA pool
Reading: higher = stronger binding
Shared flanks, not repeated: GGGAGUUCUACAGUCCGACGAUC … CAACAGAGGAUUGAGCAUCA
Target sequence (chain): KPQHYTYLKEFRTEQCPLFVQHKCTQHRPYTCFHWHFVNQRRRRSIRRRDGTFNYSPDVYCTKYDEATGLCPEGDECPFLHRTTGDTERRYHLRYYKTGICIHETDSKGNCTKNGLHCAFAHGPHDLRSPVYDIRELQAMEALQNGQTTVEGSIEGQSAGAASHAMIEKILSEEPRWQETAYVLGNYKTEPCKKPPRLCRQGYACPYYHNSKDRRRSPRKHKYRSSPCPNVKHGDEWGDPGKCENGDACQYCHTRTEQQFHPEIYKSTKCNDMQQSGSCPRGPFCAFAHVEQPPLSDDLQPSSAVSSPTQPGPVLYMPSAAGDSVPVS
Strand	bound/input enrichment
AUGGACAUGCCUCUCGAACCUUCUGAGAAAGCCACGGAUCUCUCUUUAAAACCCACUUUGUCUGCCACAGAACCCUGCAGUACGAAAGUUGAAGAGAAGGCCCCCAGAAGUAAGAGUGAG	0.266 ratio
AUCCGUGAAUUGGUGUCACGGGGGCGGAGUGUCCACUUUUCUGAGGCUGAACAGCGCUGCAUAUCUCGUGGCUUCACACCAGCCCAGUUCCAGGCAGCUCUGGAUGAAUAUGAGGAGCUA	0.0662 ratio
UCUAAGGAGGCUAUGGAGAGAGCAAAUGGGAUGGAGCUGGACGGUAGAAGAAUCCGUGUGGAUUAUUCUAUCACCAAGAGAGCGCACACACCCACACCAGGCAUUUACAUGGGCAGACCA	0.215 ratio
CCCAGGCGGUCUUCCUUCAGAUUGCAGACUGAAGCCCAGGAAGAUGAUUGGUAUGACUGUCAUAGGGAAAUACGUCUGAGUUUUUCUGAUACCUAUCAGGAUUAUGAGGAGUACUGGAGA	0.17 ratio
AUUACAUUACAUGAAAUGGCAGAAACAGAUGAAGGAUGGUUGGAUGUUGUCCAGUCUUUAAUUAGAGUUAUUCCAUUGGAAGAUCCAUUGGGACCAGCUGUUAUAACCUUGUUACUAGAC	0.439 ratio
GAAAAGGAAAAUCUGCAAAGAACUUUCCUGCUUACAACCUCAAGUAAAGAAGAUACUUGUUUUUUAAAGGAGCAACUUCGUAAAGCAGAGGAACAGGUUCAGGCAACUCGGCAAGAAGUU	0.11 ratio
CUCCCACCCGCGUGUGUAAGCGCGGCCCGCCUCCUACAUCCAGCCCGCGCCCUCCAACCGCAUAGGAUCCAUGUAUUUAUUUUCCUUGAGUUUUUAUUUAUGCUGUAACUCGUGUCAAGC	5 ratio
CACAGAAUGUUGUCUAUAGAAAAUGGGAGUUUACUUUAAACAUGGUUAGAACCCAAACAGCUUUUUAAAGUUAAAUGUGGAAACAAAUCAAUAAAUUAUAUGAACAAUUUAGAUACGGUA	2.74 ratio
UUUUCUGAAUAAAAUAGUUGUUUCUAAUUAAAAAGUAGCCAAGCUAAGAUGCCUGGCUGGGCUUCUGAGGAAUUAAUACACUCGUGUGUGUGUGUGUGUGUGUGUGUGUGUGUGUGUGUG	12.8 ratio
UAUGUACCAAAUGUUCCAGAAGGUUCUGUGAGAAUUAUAGACCAAUCCAGCAAUGUGGAGAUAGCAUCUUUUCCAAUCUAUAAGGUGUUAUUCUGUGCACGUGGACAUGACGGAACAACA	0.563 ratio
ACACGAUGUUUUUUCAAGAUUUUAGACCCUUUCUAAGUAGCAGUCCACUGGACCAAGAUAAUAGAGCCAAUGAAAGGGGUCACCAGACUCACACUGACUUCUGGGGAGCAAGACCUCCAC	0.415 ratio

Set 4
Target: ABI1, truncated, D143A, DHFR fusion (Arabidopsis thaliana)
Technique: DHFR PCA, deep sequencing
Sample: yeast
Notes: methotrexate growth selection, single substitutions
Added: (+)-ABA 58 µM
Baseline: wild-type fitted maximum
Reading: higher = stronger binding
Starting sequence: PYL1, truncated, DHFR fusion (Arabidopsis thaliana); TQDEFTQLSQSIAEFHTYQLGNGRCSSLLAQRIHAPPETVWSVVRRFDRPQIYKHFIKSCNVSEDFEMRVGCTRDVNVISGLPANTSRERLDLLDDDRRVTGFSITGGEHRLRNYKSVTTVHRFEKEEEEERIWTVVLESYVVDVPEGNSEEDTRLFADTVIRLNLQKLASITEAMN
Variant	relative binding score
G23A	78.4%
E129I	87.7%
Q7P	77.3%
S117Y	-13%
P50A	20.4%
R98C	60.7%
V43L	85.4%
G81C	37.2%
R69T	85.8%
G71P	33.9%
G81L	-10.2%
E38R	48.3%
D3F	83.7%
I57Q	7.67%
E4S	79%
T135N	-9.15%
N114K	53.2%
Q31D	-13.2%
S11I	77.5%
E151W	70.7%
E125N	96.6%
R132S	103%
I162L	52.4%
D144T	60.4%
R132A	104%

Set 5
Target: RNA binding protein fox-1 homolog 2, RRM domain, GST-SBP tag (RBFOX2, Homo sapiens, UniProt O43251-10, residues 100-194)
Technique: RNA Bind-n-Seq
Molecule type: RNA
Sample: in vitro
Tested at: 365 nM
Notes: natural RNA segment, single round, ends assumed
Baseline: no-protein control
Reading: higher = stronger binding
Shared flanks, not repeated: GGGAGUUCUACAGUCCGACGAUC … UGGAAUUCUCGGGUGCCAA
Construct (chain): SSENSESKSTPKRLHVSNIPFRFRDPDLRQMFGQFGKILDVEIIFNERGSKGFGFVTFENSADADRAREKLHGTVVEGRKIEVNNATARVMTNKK
Strand	RBNS enrichment (R)
UUAGGGGAAUUAAGGACAGGCCUAGAGUUAAAACACUUGUCUCCUAGUGUCACCUCUGCCAGCAGACUGUUACUUUCCUUCUGAAAAAGCCAAUAGUCUUUUUUUUUUUC	0.709
UCUCCGGUGACACCUAUAAGCCUCCAUUGAGCUCAGAGAGGAUGCCUUAGGCUGGAUCCUGCUCCUCUGUGAGGAGUAAGGGUGCCUAAUAAAUACAUUUCUGCUUUAUU	0.155
ACUGCCAUCACAAAUGUCCCGGGGCCUCCUGCAAGACAGUAAUGAAUCCAGGUUAUAGUGCCUUCGACGUCUCGGUUCCCCGGAAGGAUGCUCCUUCCCUGAAUAUGCAG	0.34
GCCCGGAGAGACCUAACCUGUAUGUCCACUUUCAUGCUCUUGUUCCCCAAACCCCUGGGCAUUGUUGUCUGCUCAAGAGAUUCUACUGGAAGCAUGAUGACCCACCUGUC	1.64
AGACCAGGAAUCUAGAUAAUAGUUUAGCUUCUGCCUGAUACUGAUCCGGGAGCACAUGAUAUUUAUAUUUAAAAUUCCAGUAGUUAUAUUUAAUGAUCUCACCCCUGAGU	0.82
ACCUUUUGUAGAAAAAAAUGGCUUAUGCCACGUAAAGGUGAAUUUUUAGAAACCACCUUCUAGGCGUUUUUGGAACCCUUACUGAAAUCCCUCCCCUUGUUACAGAUGGC	0.311
UUGGCCAGACCCUCUGUCCAAGGCUCAUUAGAAGGCUGGGGUUGUGUUCAGGUGACAGACUUUAUCAAAACUAUUGCUGUUUUGGCAUGAGUUGUGUUUCUGGACUGUUU	0.374
CAGUAGAUGUAAUGGAAGCCAAAUUAAAUUGAUACAGAACCCAUUUCUCAGAGUCUUUUUUUUUUUUUGAGACAGAGUCUCGCUGUUACCCAGGCUGGAGUGCAAUGGCG	0.342
ACGAUGGGGCCUCUUUCUAAAGGCAGUUGCUGCAAAUUCCAGUUCUUCCAAAAGUCACUUGAUUUAAGGGUUAUCCACAAGUUGUGCUUAUUUUGAUAUAGCAUUUGUUU	0.506
CUCCUAAUGUAUUUGUUGGUUUCAUUUCAUUUUCAUUUUGCACUUGCACUAAAUUGAACAUGACCCUGUUAGAGAUGUUAUAAAGGGAAUGAAAUCCUGGAACUCAGAGU	16.8
AAACCUCCAGCUGCAAAACCUUAUGAACUCUUCAGUCGUACACACUGAAAACCUAUUUCUUCUAAAUUACAUGAUUUGGAUUGGUUUUAGGGUUUUAGGGUUGUAGGGUU	0.3
CAGGGUUUUUGUGCUGGUGUGGAUUAGUUUAACUCUUGUAUUCAACCGUUAGUGCUACCACCUUCUCACAUUACAAUACAAUUACUGGAAGCAAGUACUGCAUUUCCUAU	1.95

A few entries again (set 4):
Variant	relative binding score
E4S	79%
R132A	104%
E125N	96.6%
T135N	-9.15%
I57Q	7.67%
S117Y	-13%
R132S	103%
Q31D	-13.2%
G81C	37.2%
